{"data": "Measurements collected from several papers", "note": "Each numbered part is a random draw from the data of one study; scales do not carry over between parts. Changes are numbered by the printed parent chain."}
{"data": "Set 1", "target": "Histone acetyltransferase KAT6A, both winged helices, GST fusion (KAT6A, Homo sapiens, UniProt Q92794, residues 1-181)", "technique": "protein binding microarray", "molecule type": "double-stranded DNA, one strand shown", "medium": "in vitro", "concentration": "not given", "notes": "8-mer, flanks averaged, mean of 2 arrays, mostly near background", "reference": "not given", "reading": "higher = stronger binding", "Target sequence (chain)": "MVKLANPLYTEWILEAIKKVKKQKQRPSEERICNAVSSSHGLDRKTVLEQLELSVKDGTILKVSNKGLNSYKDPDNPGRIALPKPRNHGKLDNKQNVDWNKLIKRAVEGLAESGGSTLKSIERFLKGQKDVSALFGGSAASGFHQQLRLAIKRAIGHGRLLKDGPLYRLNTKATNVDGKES"}
{"Sequence": "CAGATCTA", "E-score": -0.102}
{"Sequence": "CAAGTTGG", "E-score": -0.16}
{"Sequence": "GAGGCCAA", "E-score": -0.217}
{"Sequence": "GAGTCATA", "E-score": -0.0834}
{"Sequence": "AGGCTGTA", "E-score": -0.149}
{"Sequence": "GCCTAGCC", "E-score": 0.0283}
{"Sequence": "CCGGGGTC", "E-score": 0.182}
{"Sequence": "GGGAGACC", "E-score": 0.0609}
{"Sequence": "ACTATGAC", "E-score": -0.0159}
{"Sequence": "ATCAAAGA", "E-score": -0.0745}
{"Sequence": "ACTTATAA", "E-score": -0.129}
{"Sequence": "ATTAAGAA", "E-score": -0.11}
{"Sequence": "CTATCAAG", "E-score": -0.229}
{"Sequence": "CGCGACCC", "E-score": 0.175}
{"Sequence": "CTAAGCAC", "E-score": 0.00441}
{"data": "Set 2", "target": "CCNF, cyclin fold, Cln2 fusion (human)", "technique": "yeast growth competition, sequencing", "medium": "yeast", "notes": "weak parent motif", "reference": "not given", "reading": "higher = stronger binding", "parent": "PKN2 docking peptide (human); VSAVQKLDFSDTM"}
{"Substitution": "A3E", "normalised enrichment score": -0.668}
{"Substitution": "F9H", "normalised enrichment score": -1.07}
{"Substitution": "V1F", "normalised enrichment score": 1.66}
{"Substitution": "K6M", "normalised enrichment score": -0.272}
{"Substitution": "M13A", "normalised enrichment score": 0.704}
{"Substitution": "D8W", "normalised enrichment score": 1.24}
{"Substitution": "A3L", "normalised enrichment score": 0.493}
{"Substitution": "M13T", "normalised enrichment score": 0.875}
{"Substitution": "K6D", "normalised enrichment score": -0.426}
{"Substitution": "K6S", "normalised enrichment score": 0.581}
{"Substitution": "A3P", "normalised enrichment score": 0.259}
{"Substitution": "F9D", "normalised enrichment score": 0.364}
{"data": "Set 3", "Molecule": "PhoQ, residues 284 288 289 292 302 303 TSTLRA", "technique": "Sort-seq", "refers to": "YFP reporter", "medium": "E. coli", "notes": "PhoQ-PhoP variant library", "added": "10 µM Mg2+", "reference": "high Mg2+ state", "reading": "higher = stronger signaling"}
{"target": "PhoP, residues 12 14 15 18 19 VGHWL (Escherichia coli, UniProt P23836)", "fold induction": 2.53}
{"target": "PhoP, residues 12 14 15 18 19 NFFVT (Escherichia coli, UniProt P23836)", "fold induction": 14.8}
{"target": "PhoP, residues 12 14 15 18 19 TPWTL (Escherichia coli, UniProt P23836)", "fold induction": 8.46}
{"data": "Set 4", "target": "Centromere-binding protein 1, full length, His-tagged (CBF1, Saccharomyces cerevisiae, UniProt P17106, residues 1-351)", "technique": "competition protein-binding microarray", "molecule type": "double-stranded DNA, one strand shown", "medium": "in vitro", "concentration": "2 µM", "notes": "whole 60-bp probe, lowest competitor level", "added": "Pho4 competitor, 0.05 µM", "reading": "higher = stronger binding", "shared flanks, not repeated": "… GTCTTGATTCGCTTGACGCTGCTG", "chain of UniProt P17106 (whole entry, looked up)": "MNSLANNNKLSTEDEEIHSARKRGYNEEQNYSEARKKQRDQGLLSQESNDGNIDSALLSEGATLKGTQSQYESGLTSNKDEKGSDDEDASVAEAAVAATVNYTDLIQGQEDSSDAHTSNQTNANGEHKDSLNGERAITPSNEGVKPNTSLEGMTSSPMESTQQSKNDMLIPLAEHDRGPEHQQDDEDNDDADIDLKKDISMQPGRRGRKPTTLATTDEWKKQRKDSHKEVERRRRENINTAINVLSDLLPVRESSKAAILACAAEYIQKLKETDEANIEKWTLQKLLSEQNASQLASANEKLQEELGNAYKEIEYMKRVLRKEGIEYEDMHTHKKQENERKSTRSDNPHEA"}
{"Sequence": "ATGCCCTGCTATCTTCACGTGGTCGAATAGCTTATT", "fluorescence intensity": "1330 a.u."}
{"Sequence": "CTTTCCCGATCTTGACATGTGGGTGTAGCACATTTG", "fluorescence intensity": "83.4 a.u."}
{"Sequence": "CTTCTCGCGGTGGTGCCCGTGGTTACTCCAGAGGTG", "fluorescence intensity": "66.3 a.u."}
{"Sequence": "AAATTACTAAGTTGGTGGGTGGGTGACGCCGTATGA", "fluorescence intensity": "70.7 a.u."}
{"Sequence": "GTCTTGTCTCATTGGGTTGTGGGTGTCCCCACTTCA", "fluorescence intensity": "76.8 a.u."}
{"Sequence": "CATGCTGTAGCTATCGTCGTGATGGCTTTTACTGGC", "fluorescence intensity": "82.8 a.u."}
{"Sequence": "TCAGAGAACAGGAAGCATGTGCTCAGTGCACAGGCG", "fluorescence intensity": "178 a.u."}
{"Sequence": "CCGTCAACGGTCAAGCCCGTGACAAAGCCACAATGA", "fluorescence intensity": "163 a.u."}
{"Sequence": "AACGCGTCTTAAAAGAATGTGACAGGAGATGGGATG", "fluorescence intensity": "94.6 a.u."}
{"Sequence": "AAAGCGGTAATTTGTCGAGTGGGTGCAGATATCTAT", "fluorescence intensity": "71 a.u."}
{"Sequence": "GAACAACTGTATTGCCACATGGGCAGACCAGATCGG", "fluorescence intensity": "85.1 a.u."}
{"Sequence": "ATGAGATTGAAATCCTCCGTGATGGGCTCCGGAACT", "fluorescence intensity": "64.5 a.u."}
{"Sequence": "CTTTCCCGATCTTGTCACGCAACTTTAGCACATTTG", "fluorescence intensity": "120 a.u."}
{"Sequence": "TCAATCTTTGTTCGTCAGGTGGGATACCTTCCTTGT", "fluorescence intensity": "157 a.u."}
{"Sequence": "TAACGGCTATCCCATCACGCTTTCACCGAGGAGACC", "fluorescence intensity": "131 a.u."}
{"Sequence": "AAATTACTAAGTTGGCTTGTGGGTGACGCCGTATGA", "fluorescence intensity": "73.3 a.u."}
{"Sequence": "AAATTACTAAGTTGAACCGTGGGTGACGCCGTATGA", "fluorescence intensity": "69.1 a.u."}
{"Sequence": "AACGAATTGAAACGTATCGTGACGGACAATGAAGAA", "fluorescence intensity": "161 a.u."}
{"Sequence": "TAGTATTCGATGTGTCTCGTGATGGCTTAATTTCAG", "fluorescence intensity": "811 a.u."}
{"Sequence": "CTTCTGTAAATTTGGGATGTGGGTGGACGCGCCCCG", "fluorescence intensity": "80.6 a.u."}
{"Sequence": "CGACTGAAAAACTCAAACGTGCTTTACCGCCAAGCA", "fluorescence intensity": "90.4 a.u."}
{"Sequence": "ACTATTCGTCCGAGTCACGCATACGTTTGTCAGTGG", "fluorescence intensity": "214 a.u."}
{"Sequence": "CATACCCAACCTTGCATTGTGGGTGAAGATATTTGT", "fluorescence intensity": "83.5 a.u."}
{"Sequence": "TTCTTCCAATCGAGTCACGTCGCGTCCTCGGAGGCA", "fluorescence intensity": "124 a.u."}
{"Sequence": "GCGGGCATCGCGTTCGTCGTGACGAATGACTTGAAA", "fluorescence intensity": "80.9 a.u."}
